Results gathered from unrelated publications.
Compare with care: the assays were run in different laboratories. Several values in a cell are separate wells, animals, samples, runs or records. Numbers after ± are the reported error.
GLP1R: Glucagon-like peptide 1 receptor (GLP1R, Homo sapiens, UniProt P43220)

Under “thermal stability ratio”, `O=C(COP(=O)(O)O)[C@@H](O)[C@H](O)[C@H](O)COP(=O)(O)O` is recorded as 0.857 and 0.476 and 0.583 (Actin, alpha skeletal muscle (ACTA1, Homo sapiens, UniProt P68133); thermal proteome profiling, refers to: ACTA1; HepG2 cell lysate; concentration not given, 57 over 37 °C; reference: compound over control).
`CC(=O)OCC1=C(C(=O)O)N2C(=O)[C@@H](NC(=O)Cc3cccs3)[C@H]2SC1` gave a Km of 49 ± 2.8 µM (beta-lactamase RAD-1 (Riemerella anatipestifer); substrate, continuous spectrophotometric hydrolysis; 30 °C).
`CC[C@H](C)[C@H](NC(=O)[C@H](Cc1ccccc1)NC(=O)[C@H](CCC(=O)O)NC(=O)[C@H](CCCNC(=N)N)NC(=O)[C@H](C)NC(=O)[C@H](C)NC(=O)[C@H](CCC(N)=O)NC(=O)[C@H](CCCCNc1c(NCCCCCN(O)C(=O)CCC(=O)NCCCCCN(O)C(=O)CCC(=O)NCCCCCN(O)C(C)=O)c(=O)c1=O)NC(=O)[C@H](CCC(=O)O)NC(=O)[C@H](CC(C)C)NC(=O)[C@H](Cc1ccc(O)cc1)NC(=O)[C@H](CO)NC(=O)[C@H](CO)NC(=O)[C@H](CCCCNc1c(NCCCCCN(O)C(=O)CCC(=O)NCCCCCN(O)C(=O)CCC(=O)NCCCCCN(O)C(C)=O)c(=O)c1=O)NC(=O)[C@H](CC(=O)O)NC(=O)[C@H](CO)NC(=O)[C@@H](NC(=O)[C@H](Cc1ccccc1)NC(=O)[C@@H](NC(=O)CNC(=O)[C@H](CCC(=O)O)NC(=O)[C@H](C)NC(=O)CCc1cnc[nH]1)[C@@H](C)O)[C@@H](C)O)C(=O)N[C@@H](C)C(=O)N[C@@H](Cc1c[nH]c2ccccc12)C(=O)N[C@@H](CC(C)C)C(=O)N[C@H](C(=O)N[C@@H](CCCNC(=N)N)C(=O)NCC(=O)N[C@@H](CCCNC(=N)N)C(=O)N[C@@H](CCCCNC(=O)COCCOCCNC(=O)COCCOCCNC(=O)CC[C@H](NC(=O)CCCCCCCCCCCCCCCCC(=O)O)C(=O)O)C(=O)O)C(C)C` — result for “fold potency loss”: 39.5 (GLP1R; agonist, CRE luciferase reporter; BHK cells; metal-free DFO conjugate, together with: 0% HSA; reference: parent peptide).
`O=c1nc(SCc2cc(F)cc(C(F)(F)F)c2)nc(SCc2ccc3nc(Cl)ccc3c2)[nH]1` gave a relaxed DNA of 99.5% (TOP2A (Homo sapiens, UniProt P11388); DNA relaxation; 7.8 µM, replicate 1).
`CC[C@H](C)[C@H](NC(=O)[C@H](Cc1ccccc1)NC(=O)[C@H](CCC(=O)O)NC(=O)[C@H](CCCNC(=N)N)NC(=O)[C@H](C)NC(=O)[C@H](C)NC(=O)[C@H](CCC(N)=O)NC(=O)[C@H](CCC(=O)O)NC(=O)[C@H](CCC(=O)O)NC(=O)[C@H](CC(C)C)NC(=O)[C@H](Cc1ccc(O)cc1)NC(=O)[C@H](CO)NC(=O)[C@H](CO)NC(=O)[C@@H](NC(=O)[C@H](CC(=O)O)NC(=O)[C@H](CO)NC(=O)[C@@H](NC(=O)[C@H](Cc1ccccc1)NC(=O)[C@@H](NC(=O)CNC(=O)[C@H](CCC(=O)O)NC(=O)[C@H](C)NC(=O)CCc1cnc[nH]1)[C@@H](C)O)[C@@H](C)O)C(C)C)C(=O)N[C@@H](C)C(=O)N[C@@H](Cc1c[nH]c2ccccc12)C(=O)N[C@@H](CC(C)C)C(=O)N[C@H](C(=O)N[C@@H](CCCNC(=N)N)C(=O)NCC(=O)N[C@@H](CCCNC(=N)N)C(=O)N[C@@H](CCCCNC(=O)COCCOCCNC(=O)COCCOCCNC(=O)CC[C@H](NC(=O)CCCCCCCCCCCCCCCCC(=O)O)C(=O)O)C(=O)NCC(=O)NCC(=O)N[C@@H](CO)C(=O)N[C@@H](CCCCNC(=O)[C@H](CCCCNC(=O)[C@H](CCCCNc1c(NCCCCCN(O)C(=O)CCC(=O)NCCCCCN(O)C(=O)CCC(=O)NCCCCCN(O)C(C)=O)c(=O)c1=O)Nc1c(NCCCCCN(O)C(=O)CCC(=O)NCCCCCN(O)C(=O)CCC(=O)NCCCCCN(O)C(C)=O)c(=O)c1=O)NC(=O)[C@H](CCCCNc1c(NCCCCCN(O)C(=O)CCC(=O)NCCCCCN(O)C(=O)CCC(=O)NCCCCCN(O)C(C)=O)c(=O)c1=O)Nc1c(NCCCCCN(O)C(=O)CCC(=O)NCCCCCN(O)C(=O)CCC(=O)NCCCCCN(O)C(C)=O)c(=O)c1=O)C(=O)O)C(C)C`: “fold potency loss” 3.1 (GLP1R; agonist, CRE luciferase reporter; BHK cells; Zr-loaded DFO conjugate, together with: 1% HSA; reference: parent peptide).
`COc1cc(Nc2ncc3c(n2)-c2ccc(Cl)cc2C(c2c(F)cccc2OC)=NC3)ccc1C(=O)O` has a remaining activity of 97% (MRCK beta (CDC42BPB); inhibitor, biochemical kinase; 1 µM).
`N#Cc1ccc(NC(=O)Nc2ccccc2)cc1` has a Hill slope of 1.09 (SRPK3 (Homo sapiens, UniProt Q9UPE1); kinase activity, Z'-LYTE).
With `O=C(O)CCCc1cc2cc(Cl)ccc2n1S(=O)(=O)c1ccc2ncsc2c1` the Emax was 39% (Ppara (Mus musculus, UniProt P23204); receptor activation, agonist; species mouse; reference: internal control agonist).
`CC1(C)CN(CCCCC(=O)N[C@H](Cc2ccccc2)C(=O)N[C@H](Cc2ccccc2)C(=O)N[C@@H](CCCCNC(=O)CCCCCCC(=O)NCCCC[C@H](NC(=O)N[C@@H](CCC(=O)O)C(=O)O)C(=O)O)C(=O)O)CC[N]2CC(C)(C)[S][Tc]2(=[O])[S]1` (some centres unmarked) [technetium-99m labelled] has a Bmax of 4.7 µmol/mg (FOLH1 (Homo sapiens, UniProt Q04609); saturation binding; LNCaP).
`CC(=O)N[C@H]1[C@H]([C@H](O)[C@H](O)CO)OC(O[C@H]2[C@@H](O)[C@@H](CO)O[C@@H](Oc3ccc([N+](=O)[O-])cc3)[C@@H]2O)(C(=O)O)C[C@@H]1O` (some centres unmarked) has a kcat of 0.58 ± 0.04 s⁻¹ (Sialidase-2 (Homo sapiens, UniProt Q9Y3R4); substrate; 10 min, pH 5.0, 37 °C).
`CC[C@@H]1[C@H](F)C(=O)N[C@@H]1COc1nccc2cc(C(N)=O)c(OC)cc12` gave an inhibition of 7.4% (SGK3 (Homo sapiens, UniProt Q96BR1); ATP-site probe binding, ActivX profiling; THP-1 cell lysate; 0.2 mM, Lys2 site).
With `COc1cc(C[C@H]2C(=O)OC[C@@H]2Cc2ccc(OC)c(OC)c2)ccc1O` the ΔG was -8.038 ± 0.0215 kcal/mol (PDE4D (Homo sapiens, UniProt Q08499); isothermal titration calorimetry).
`CC[C@H](C)[C@@H]1NC(=O)[C@H](Cc2ccc(O)cc2)NC(=O)CSC[C@@H](C(N)=O)NC(=O)CNC(=O)[C@H](Cc2c[nH]cn2)NC(=O)[C@H](CCCNC(=N)N)NC(=O)[C@H](CC(N)=O)NC(=O)[C@@H]2CCCN2C(=O)[C@H](Cc2ccccc2)NC(=O)[C@H]([C@@H](C)O)NC(=O)CNC(=O)[C@H](CC(C)C)NC(=O)[C@@H]2CCCN2C(=O)[C@H]([C@@H](C)O)NC(=O)[C@H](CCCCN)NC1=O` gave a ΔG of -9.8 ± 0.08 kcal/mol (Vacuolar protein sorting-associated protein 29 (VPS29, Homo sapiens, UniProt Q9UBQ0); binding, ITC; 25 °C, protein alone).
Under “probe labelling inhibition”, `Cc1cc(-c2ccnc3[nH]cc(F)c23)cc(F)c1[C@@]1(O)[C@H](C)CN(C(=O)CN)C[C@@H]1C` is recorded as -2.7% (AKT1 (Homo sapiens, UniProt P31749); ATP/ADP probe binding, KiNativ; HEK293T lysate; 0.1 µM, ATP loop peptide).
For `Nc1ncnc2c1ncn2[C@@H]1O[C@H](COP(=O)(O)OP(=O)(O)O)[C@@H](O)[C@H]1O`, the kcat was 0.006 ± 0.0005 s⁻¹ (CKMT1A (Homo sapiens, UniProt P12532, E265D); substrate, Kinase-Glo luminescence; pH 7.0, reverse reaction, E227D mutant, together with: second substrate in excess).
The Kd ratio of `OC1OC[C@H](O)[C@H](O)[C@H]1O` (mixture of isomers) is reported as greater than 9000 fold (uncharacterized protein (Pelagibacter ubique, UniProt Q4FMK2); binding, isothermal titration calorimetry; Candidatus Pelagibacter ubique; reference: compared with D-glucose).
`CC(=O)Nc1ccc(O)cc1`: “chemical shift change” -0.008 ppm (BRD4 (Homo sapiens, UniProt O60885); 19F NMR, refers to: tyrosine 118; 746 µM; reference: free protein).
Under “fold potency loss”, `CC[C@H](C)[C@H](NC(=O)[C@H](Cc1ccccc1)NC(=O)[C@H](CCC(=O)O)NC(=O)[C@H](CCCNC(=N)N)NC(=O)[C@H](C)NC(=O)[C@H](C)NC(=O)[C@H](CCC(N)=O)NC(=O)[C@H](CCC(=O)O)NC(=O)[C@H](CCC(=O)O)NC(=O)[C@H](CC(C)C)NC(=O)[C@H](Cc1ccc(O)cc1)NC(=O)[C@H](CO)NC(=O)[C@H](CO)NC(=O)[C@@H](NC(=O)[C@H](CC(=O)O)NC(=O)[C@H](CO)NC(=O)[C@@H](NC(=O)[C@H](Cc1ccccc1)NC(=O)[C@@H](NC(=O)CNC(=O)[C@H](CCC(=O)O)NC(=O)[C@H](C)NC(=O)CCc1cnc[nH]1)[C@@H](C)O)[C@@H](C)O)C(C)C)C(=O)N[C@@H](C)C(=O)N[C@@H](Cc1c[nH]c2ccccc12)C(=O)N[C@@H](CC(C)C)C(=O)N[C@H](C(=O)N[C@@H](CCCNC(=N)N)C(=O)NCC(=O)N[C@@H](CCCNC(=N)N)C(=O)N[C@@H](CCCCNC(=O)COCCOCCNC(=O)COCCOCCNC(=O)CC[C@H](NC(=O)CCCCCCCCCCCCCCCCC(=O)O)C(=O)O)C(=O)NCC(=O)NCC(=O)N[C@@H](CO)C(=O)N[C@@H](CCCCNc1c(NCCCCCN(O)C(=O)CCC(=O)NCCCCCN(O)C(=O)CCC(=O)NCCCCCN(O)C(C)=O)c(=O)c1=O)C(=O)NCC(=O)NCC(=O)N[C@@H](CO)C(=O)N[C@@H](CCCCNc1c(NCCCCCN(O)C(=O)CCC(=O)NCCCCCN(O)C(=O)CCC(=O)NCCCCCN(O)C(C)=O)c(=O)c1=O)C(=O)NCC(=O)NCC(=O)N[C@@H](CO)C(=O)N[C@@H](CCCCNc1c(NCCCCCN(O)C(=O)CCC(=O)NCCCCCN(O)C(=O)CCC(=O)NCCCCCN(O)C(C)=O)c(=O)c1=O)C(=O)NCC(=O)NCC(=O)N[C@@H](CO)C(=O)N[C@@H](CCCCNc1c(NCCCCCN(O)C(=O)CCC(=O)NCCCCCN(O)C(=O)CCC(=O)NCCCCCN(O)C(C)=O)c(=O)c1=O)C(=O)O)C(C)C` is recorded as 18.9 (GLP1R; agonist, CRE luciferase reporter; BHK cells; metal-free DFO conjugate, together with: 0% HSA; reference: parent peptide).
With `CCCCN1/C(=C/C=C(Br)/C=C/C2=[N+](CCCC)c3ccc(Br)cc3C2(C)C)C(C)(C)c2cc(Br)ccc21.[I-]` the Hill coefficient was 1.48 (CARM1 (Homo sapiens, UniProt Q86X55); inhibitor, filter binding; together with: histone H3.3 substrate).
For `c1ccc(C(NCc2cccnc2)(c2ccccc2)c2ccccc2)cc1`, “current decay increase” read 2 fold (KCNQ1 (Homo sapiens, UniProt P51787); whole-cell patch clamp; 300 pM; reference: control).
`COc1cc(N2CCC(N3CCN(C)CC3)CC2)ccc1Nc1ncc(Cl)c(Nc2ccccc2P(C)(C)=O)n1` gave a protein level of 0.945 and 1.03 and 1.01 (ALK tyrosine kinase receptor/Echinoderm microtubule-associated protein-like 4 (Homo sapiens, UniProt Q9HC35+Q9UM73); degrader, immunoblotting, refers to: ALK tyrosine kinase receptor/Echinoderm microtubule-associated protein-like 4; Ba/F3 EML4-ALK; concentration not given, 24 h, unit not given; reference: untreated).
With `Nc1ncnc2c1ncn2[C@@H]1O[C@H](COP(=O)(O)OP(=O)(O)OP(=O)(O)O)[C@@H](O)[C@H]1O` the normalized current was 0 (P2X purinoceptor 7 (P2rx7, Rattus norvegicus, UniProt Q64663, I214A); ion current, agonist, two-electrode voltage clamp; Xenopus laevis oocytes; 1.23 µM; reference: highest concentration response).
Under “log fold enrichment”, `Cc1cccc(N2CC(C(=O)O)CC2=O)c1` (centres unmarked) is recorded as -0.0192 (Transcription intermediary factor 1-beta, PHD-bromodomain (TRIM28, Homo sapiens, UniProt Q13263); binding, affinity selection mass spectrometry; reference: other proteins in batch).
`[O-][S+]1CCCCS1` (centres unmarked): “SOD1 dimer fraction” 30.3% (SOD1 (Homo sapiens, UniProt P00441, G94A); LC-MS; human whole blood; 100 µM, 1 h, 37 °C).
With `Nc1nc2c(ncn2[C@@H]2O[C@H](COP(=O)(O)O)[C@@H](O)[C@H]2O)c(=O)[nH]1` the reaction rate was 33.7 s⁻¹ and 30.7 s⁻¹ and 32.5 s⁻¹ (GUK1 (Homo sapiens, UniProt Q16774, T83A); enzyme activity, NADH-coupled; 2000 µM).
`O=C(Nc1c[nH]nc1-c1nc2ccc(CN3CCOCC3)cc2[nH]1)NC1CC1` — result for “luminescence signal reduction”: -0.68% (NanoBiT HiBiT/LgBiT luciferase; inhibitor, HiBiT luminescence counterscreen; conditioned medium only; 1.66 µM, 24 h; reference: vehicle).

A few entries again:
With `Nc1ncnc2c1ncn2[C@@H]1O[C@H](COP(=O)(O)OP(=O)(O)OP(=O)(O)O)[C@@H](O)[C@H]1O` the normalized current was 0 (P2X purinoceptor 7 (P2rx7, Rattus norvegicus, UniProt Q64663, I214A); ion current, agonist, two-electrode voltage clamp; Xenopus laevis oocytes; 1.23 µM; reference: highest concentration response).
Under “log fold enrichment”, `Cc1cccc(N2CC(C(=O)O)CC2=O)c1` (centres unmarked) is recorded as -0.0192 (Transcription intermediary factor 1-beta, PHD-bromodomain (TRIM28, Homo sapiens, UniProt Q13263); binding, affinity selection mass spectrometry; reference: other proteins in batch).
`[O-][S+]1CCCCS1` (centres unmarked): “SOD1 dimer fraction” 30.3% (SOD1 (Homo sapiens, UniProt P00441, G94A); LC-MS; human whole blood; 100 µM, 1 h, 37 °C).
